Results of several laboratories.
Every numbered part comes from another study and shows a few of its results, in no order.

Set 1
Cell line: HEK-293T
Effect on: pseudovirus infection
Method: FDA-approved drug library screen
Organism: VSV pseudotyped with SARS-CoV-2 spike
Tested at: 10 µM
Time: 16 h
Relative to: vehicle-treated
Endpoint: GFP-positive cells
CN(C)CCN(Cc1ccccc1)c1ccccn1: 80.8%
CC[C@H]1OC(=O)[C@H](C)[C@@H](O[C@H]2C[C@@](C)(OC)[C@@H](O)[C@H](C)O2)[C@H](C)[C@@H](O[C@@H]2O[C@H](C)C[C@H](N(C)C)[C@H]2O)[C@](C)(OC)C[C@@H](C)C(=O)[C@H](C)[C@@H](O)[C@]1(C)O: 106%
CCCC1O[C@@H]2C[C@H]3[C@@H]4CCC5=CC(=O)C=C[C@]5(C)[C@H]4[C@@H](O)C[C@]3(C)[C@]2(C(=O)CO)O1 (stereo partly drawn): 70%
C[C@H](CS)C(=O)N1CCC[C@H]1C(=O)O: 78%

Set 2
Target: Replicase polyprotein 1ab, polymerase (rep, Severe acute respiratory syndrome coronavirus 2, UniProt P0DTD1)
Effect on: enzyme activity
Action: inhibitor
Tested at: 20 µM
Endpoint: inhibition
N#Cc1ccc(-c2csc(NN=C3CCCC3)n2)cc1: -4.96%
Cc1ccc(NC(=O)CCCCCC(=O)Nc2ccccc2N)cc1: 2.65%
C=CC1=C(C)c2cc3[nH]c(cc4nc(cc5[nH]c(cc1n2)c(C)c5CCC(=O)O)C(CCC(=O)O)=C4C)c(C)c3C=C: 112%
CC(C)[C@H]1[C@@H]2CC[C@@H](C2)[C@@H]1N: 0.78%
O=C(O)Cc1ccc(OCCNC[C@H](O)c2ccccc2)cc1: 5.85%
CC(C)(C)c1nc(-c2cccc(NS(=O)(=O)c3c(F)cccc3F)c2F)c(-c2ccnc(N)n2)s1: 3.8%
CCc1c(C(=O)C(N)=O)c2c(OCC(=O)O)cccc2n1Cc1ccccc1: -0.88%
CCCCCN(C)CCC(O)(P(=O)(O)O)P(=O)(O)O: -10.5%
O=C(Nc1cc(Oc2cc(F)c(NC(=O)C3(C(=O)Nc4ccc(F)cc4)CC3)cc2F)ccn1)C1CC1: -0.07%
NC(=O)C(c1ccccc1)(c1ccc(F)cc1)c1ccc(F)cc1: -7.89%
Nc1nc(NC[C@H]2CC[C@H](CNS(=O)(=O)c3cccc4ccccc34)CC2)nc2ccccc12: 14.5%
Cc1ccc(C(=O)N(CCCN)[C@@H](c2nc3cc(Cl)ccc3c(=O)n2Cc2ccccc2)C(C)C)cc1: 2.16%
N[C@H]1CC[C@H](N[C@@H]2C[C@H]2c2ccccc2)CC1: -2.26%
CNc1ncnc2c1ncn2[C@@H]1O[C@H](CO)[C@@H](O)[C@H]1O: -6.04%
O=Nc1c(-c2c(O)[nH]c3ccccc23)[nH]c2ccccc12: 15.7%
CN1CCC(OC(c2ccccc2)c2ccccc2)CC1: 11.3%
Cn1cnc2c(NCc3ccccc3)nc(NCCO)nc21: -4.95%
CC1=CC(=O)c2ccccc2C1=O: 10.3%
N[C@H](C(=O)O)c1cc(O)no1: -3.75%
C=C[C@H]1CN2CC[C@H]1C[C@H]2[C@H](OC(=O)OCC)c1ccnc2ccc(OC)cc12: 0.78%
O=C1c2ccccc2C(=O)C1c1ccccc1: 13.5%
COc1ccc(NC(=O)c2ccc(-c3ccc(-c4noc(C)n4)cc3C)cc2)cc1N1CCN(C)CC1: 1.69%
N#Cc1ccc(N2CCN(C(=O)COc3ccc4[nH]cc(CCN)c4c3)CC2)cc1: -2.29%
CC(C)C(=O)Nc1ncc(-c2cc(C(F)F)nn2-c2c(Cl)cccc2Cl)s1: 19.3%
CC(=O)CC(=O)O: 4.3%

Set 3
Target: RNA binding protein fox-1 homolog 2, RRM domain, GST-SBP tag (RBFOX2, Homo sapiens, UniProt O43251-10, residues 100-194)
Method: RNA Bind-n-Seq
Molecule type: RNA
Sample: in vitro
Tested at: 365 nM
Notes: natural RNA segment, single round, ends assumed
Relative to: no-protein control
Reading: higher = stronger binding
Endpoint: RBNS enrichment (R)
Constant ends, left off below: GGGAGUUCUACAGUCCGACGAUC … UGGAAUUCUCGGGUGCCAA
Construct (chain): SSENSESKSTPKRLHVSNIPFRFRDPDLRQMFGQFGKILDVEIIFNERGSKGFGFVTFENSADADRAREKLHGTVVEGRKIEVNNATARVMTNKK
GGGAGAGGCGGGGAAUAAAGUGCCUAUUCUGCCAGUGUCUGGGACUUCUUUAUGGACAGAAGGGGACCCUGAUGAGACCACGCCCGGCGUUUUUACUGUGAAUGUAAAUG: 0.775
AAUUCCCCAGGCUGUGAUCUACCCUAGAGAAGGCUCGCUCCCUGCCUACUGGCUCACAAAUGAGGACCAGUGAGCCAUGUCCUUGUUCCUUGUUUGAGACUGGGCUGCAG: 1.38
CUGCCAUGCAAUUGAUAUAGUAAAUCGACUAGAAAAUUAGUAUGCCACUUAAUUAAGAUAAAAAUGCUUAGUUAUUUAUGUUAGUAUCUAGCUUUUAAAGAACUACAUGU: 0.437
CCAACUACCAACACCCGACUCUAUUGGUGCAUUUAAAAUGUGAUUCCAUUUUUUCUUACAAUUCUUCAGGGAACUUACCUGCAUUAAGUGAGGUUAAAUGCAUUCAGGAG: 0.584
UAUGUUUUUAGAGCAUGCAAUCUUAACUUUGUUAAACUAUUAUUAUUGAUCACAUUUUGAUUUUUUUCUCUCCACAUCAGGAUAGUUUACUGAAGCACAAUCUCUUAUAC: 7.71
AGCUUCCGGACUUGGUUGCACCCCCAGCAAGAAAAGAAGCCAAGCAAAGCUUCUAAAGACCGAAGGAAUCUUUCCCUCACCCCCACCCCCUCGCCUUGGUGAUUUCUUGU: 0.515
CAGAGCCAGACAAAGCUGUGAAUGGCCUAGGGGCUGAGUCCCACACCAGCUGUGAAUUCUCCUGCAGACAGGAGGGCCCUGGCUGUGCACCUGGGGAAGUGGUUGCCCUG: 0.499
UUCCGAAGAUGAGGCCCAGGAUAUGGAGUUGUAGUAGAAAAAGCACCUGCUUUUCAGAAAGACUAUUAUUUCCUAACCAUGAGAAGCAGACUAUAAUAUUCAUAUUUAAA: 0.171

Set 4
Target: Interferon regulatory factor 7, full length, phosphomimetic (IRF7, Homo sapiens, UniProt Q92985, residues 1-503, S101K/S471D/S472D/S475D/S476D/S477D/S483D/S484D/S487D)
Method: protein-binding microarray
Molecule type: double-stranded DNA, one strand shown
Sample: in vitro
Tested at: 250 nM
Notes: 60-bp whole probe
With: salmon DNA 0.4 mg/ml
Relative to: random background probes
Reading: higher = stronger binding
Endpoint: log fluorescence
Constant ends, left off below: GCCTAGCAC … GTCTTGATTCGCTTGACGCTGCTG
Target sequence (chain): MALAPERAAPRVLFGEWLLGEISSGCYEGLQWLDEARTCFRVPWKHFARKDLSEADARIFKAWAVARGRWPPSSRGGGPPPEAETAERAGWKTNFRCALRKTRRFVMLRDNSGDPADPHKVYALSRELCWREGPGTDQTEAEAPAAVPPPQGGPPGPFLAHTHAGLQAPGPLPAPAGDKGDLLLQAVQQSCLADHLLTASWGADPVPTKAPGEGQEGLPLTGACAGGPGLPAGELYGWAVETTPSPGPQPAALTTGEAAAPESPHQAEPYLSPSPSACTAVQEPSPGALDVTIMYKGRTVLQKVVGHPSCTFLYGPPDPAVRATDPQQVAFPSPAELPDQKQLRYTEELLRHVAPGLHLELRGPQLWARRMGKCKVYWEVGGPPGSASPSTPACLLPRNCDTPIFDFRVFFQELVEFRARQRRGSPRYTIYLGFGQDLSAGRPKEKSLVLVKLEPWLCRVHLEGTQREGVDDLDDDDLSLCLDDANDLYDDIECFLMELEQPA
TCATCTCTCCCATTCTGACTGTGCTAG: 0.894 z-score
GACGGTTTCGTTTTCCTGACGTGCTAG: 14.3 z-score
GATGGTCTCCTTATCCTGACGTGCTAG: 0.175 z-score
TTACATTCCAGTTTCGATTAGTGCTAG: 9.19 z-score
TAAGATTTCAGTTTCGATTAGTGCTAG: 9.79 z-score
GACGATCTCCTACTGCTGACGTGCTAG: -0.146 z-score
TTAGGACTGCTACTGCTTTCGTGCTAG: -0.507 z-score
TTAGGTTTCGAATTTCGGTTAGTGCTA: 9.61 z-score

Set 5
Target: Histone acetyltransferase KAT6A, both winged helices, GST fusion (KAT6A, Homo sapiens, UniProt Q92794, residues 1-181)
Method: protein binding microarray
Molecule type: double-stranded DNA, one strand shown
Sample: in vitro
Tested at: not given
Notes: 8-mer, flanks averaged, mean of 2 arrays, mostly near background
Relative to: not given
Reading: higher = stronger binding
Endpoint: E-score
Target sequence (chain): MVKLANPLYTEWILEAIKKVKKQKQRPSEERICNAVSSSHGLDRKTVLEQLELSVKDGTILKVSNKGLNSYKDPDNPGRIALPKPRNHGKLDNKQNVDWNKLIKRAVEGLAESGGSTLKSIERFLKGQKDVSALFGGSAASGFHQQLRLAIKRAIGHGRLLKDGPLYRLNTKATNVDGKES
TCCTAACA: -0.143
CCTCAAAA: -0.0688
ATGAATCC: 0.00355
ACCCACGG: 0.147
AGACGAGC: -0.00992
ACTTCGAC: -0.00579
CCGTCGAC: 0.228
ACTATAGT: -0.0795

Other studies, line by line
S=C=NCc1ccccc1  inhibition (Replicase polyprotein 1ab, main protease (rep, Severe acute respiratory syndrome coronavirus 2, UniProt P0DTD1); enzyme activity, inhibitor; 20 µM, primary screen): 68.7%
